Published values from different studies.
Protocols differ between the studies behind these lines. ± gives the spread as reported.
Sequence of UniProt P21729 (whole entry, looked up): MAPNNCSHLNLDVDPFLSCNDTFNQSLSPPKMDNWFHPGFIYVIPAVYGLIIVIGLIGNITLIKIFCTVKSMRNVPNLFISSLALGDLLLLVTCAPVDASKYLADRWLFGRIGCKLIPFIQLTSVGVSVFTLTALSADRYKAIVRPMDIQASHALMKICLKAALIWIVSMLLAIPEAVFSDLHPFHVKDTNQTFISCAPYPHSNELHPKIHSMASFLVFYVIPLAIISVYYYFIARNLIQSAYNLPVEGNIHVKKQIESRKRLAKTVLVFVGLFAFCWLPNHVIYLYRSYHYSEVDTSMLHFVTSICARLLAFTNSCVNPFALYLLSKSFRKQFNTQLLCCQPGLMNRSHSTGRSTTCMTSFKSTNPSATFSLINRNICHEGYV

For `CCCC[C@H](NC(=O)CCCCCCCNC(=O)c1ccc(NN)nc1)C(=O)N[C@H]1CC(=O)NCCCC[C@@H](C(N)=O)NC(=O)[C@H](Cc2c[nH]c3ccccc23)NC(=O)[C@H](CCCNC(=N)N)NC(=O)[C@@H](Cc2ccccc2)NC(=O)[C@H](Cc2c[nH]cn2)NC1=O` [technetium-99m labelled], the uptake was 0.09 ± 0.03 %ID/g (C57 mouse, B16/F1 melanoma, blood; intravenous, 24 h).
The tissue uptake of `CSCC[C@H](NC(=O)[C@H](CC(C)C)NC(=O)[C@H](Cc1c[nH]cn1)NC(=O)CNC(=O)[C@@H](NC(=O)[C@H](C)NC(=O)[C@H](Cc1c[nH]c2ccccc12)NC(=O)[C@H](CCC(N)=O)NC(=O)CCCCCNC(=O)CNC(=O)CNC(=O)CNC(=O)CSC(C)=O)C(C)C)C(N)=O` [technetium-99m labelled] is reported as 1.64 ± 0.22 %ID/g (Swiss mouse, blood; intravenous, 18.5 MBq, 5 min).
The tissue uptake of `CCCC[C@H](NC(=O)CNC(=O)CNC(=O)c1ccc(NN)nc1)C(=O)N[C@H]1CC(=O)NCCCC[C@@H](C(N)=O)NC(=O)[C@H](Cc2c[nH]c3ccccc23)NC(=O)[C@H](CCCNC(=N)N)NC(=O)[C@@H](Cc2ccccc2)NC(=O)[C@H](Cc2c[nH]cn2)NC1=O` [technetium-99m labelled] is reported as 4.54 ± 0.7 %ID/g (C57 mouse, B16/F1 melanoma-bearing, tumor; intravenous, 24 h).
For `CC(C)(C)n1cc(CN(Cc2cn(CCOCCOCCOCCOCCOCCOCCC(=O)N[C@@H](CCCNC(=N)N)C(=O)N[C@@H](CCCCN)C(=O)N[C@@H](CCCCN)C(=O)N[C@@H](CCCNC(=N)N)C(=O)N[C@@H](CCCNC(=N)N)C(=O)N[C@@H](CCC(N)=O)C(=O)N[C@@H](CCCNC(=N)N)C(=O)N[C@@H](CCCNC(=N)N)C(=O)N[C@@H](CCCNC(=N)N)C(N)=O)nn2)Cc2cn(C(C)(C)C)nn2)nn1`, the viability was 75% (OVCAR-5; 200 µM, 10 min, after CuAAC reaction).
`CCCNC(=O)[C@H](CC(C)C)NC(=O)[C@H](Cc1c[nH]cn1)NC(=O)CNC(=O)[C@@H](NC(=O)[C@H](C)NC(=O)[C@H](Cc1c[nH]c2ccccc12)NC(=O)[C@H](CCC(N)=O)NC(=O)[C@@H](Cc1ccccc1)NC(=O)CCCCCNC(=O)CN1CCN(CC(=O)O)CCN(CC(=O)O)CCN(CC(=O)O)CC1)C(C)C` [indium-111 labelled] has a tissue uptake of 0.04 ± 0.01 %ID/g (Gastrin-releasing peptide receptor (Mus musculus, UniProt P21729); biodistribution; CF-1 mice, muscle; intravenous, 1 h, unblocked).
`N=C(N)NCCC[C@@H]1NC(=O)[C@H](CCCCNC(=O)CC[C@H](NC(=O)CCOCCOCCOCCOCCNC(=O)CC[C@H](NC(=O)CN2CCN(CC(=O)O)CCN(CC(=O)O)CCN(CC(=O)O)CC2)C(=O)NCCOCCOCCOCCOCCC(=O)N[C@@H](CCC(=O)NCCCC[C@@H]2NC(=O)[C@@H](Cc3ccccc3)NC(=O)[C@H](CC(=O)O)NC(=O)CNC(=O)[C@H](CCCNC(=N)N)NC2=O)C(=O)NCCCC[C@@H]2NC(=O)[C@@H](Cc3ccccc3)NC(=O)[C@H](CC(=O)O)NC(=O)CNC(=O)[C@H](CCCNC(=N)N)NC2=O)C(=O)NCCCC[C@@H]2NC(=O)[C@@H](Cc3ccccc3)NC(=O)[C@H](CC(=O)O)NC(=O)CNC(=O)[C@H](CCCNC(=N)N)NC2=O)NC(=O)[C@@H](Cc2ccccc2)NC(=O)[C@H](CC(=O)O)NC(=O)CNC1=O` [indium-111 labelled] has a tissue uptake of 10.7 ± 2.41 %ID/g (athymic nude mice, female, U-87 MG glioma xenograft, U-87 MG tumour; intravenous, 3 µCi, 1 h).
`COC(=O)[C@H](CSSC(C)(C)[C@H](NC(=O)[C@H](CCC(=O)NC[C@H](O)[C@@H](O)[C@H](O)[C@H](O)CO)NC(=O)[C@H](CCC(=O)O)NC(=O)[C@H](CCC(=O)NC[C@H](O)[C@@H](O)[C@H](O)[C@H](O)CO)NC(=O)[C@H](CCC(=O)O)NC(=O)[C@H](CCC(=O)NC[C@H](O)[C@@H](O)[C@H](O)[C@H](O)CO)NC(=O)CC[C@H](NC(=O)c1ccc(NCc2cnc3nc(N)[nH]c(=O)c3n2)cc1)C(=O)O)C(=O)O)NC(=O)CC[C@H](NC(=O)c1ccc(NCc2cnc3nc(N)[nH]c(=N)c3n2)cc1)C(=O)O` has an AUC(0-last) of 1.02 µM·h (Lewis rat, female, plasma; subcutaneous, 500 nmol/kg).
The tissue uptake of `N=C(N)NCCC[C@@H]1NC(=O)[C@H](CCCCNC(=O)CC[C@H](NC(=O)CCOCCOCCOCCOCCNC(=O)CN2CCN(CC(=O)O)CCN(CC(=O)O)CCN(CC(=O)O)CC2)C(=O)NCCCC[C@@H]2NC(=O)[C@@H](Cc3ccccc3)NC(=O)[C@H](CC(=O)O)NC(=O)CNC(=O)[C@H](CCCNC(=N)N)NC2=O)NC(=O)[C@@H](Cc2ccccc2)NC(=O)[C@H](CC(=O)O)NC(=O)CNC1=O` [indium-111 labelled] is reported as 0.56 ± 0.15 %ID/g (female athymic nude mice, heart; intravenous, 3 µCi, 4 h, U-87 MG glioma xenograft).
`COc1cccc2c1C(=O)c1c(O)c3c(c(O)c1C2=O)C[C@@](O)(C(=O)CO)C[C@@H]3O[C@H]1C[C@H](NC(=N)CCCSSC[C@@H]2NC(=O)[C@H](CCCNC(=N)N)NC(=O)[C@H](Cc3c[nH]c4ccccc34)NC(=O)[C@H](CCCNC(=N)N)NC(=O)[C@H](Cc3c[nH]c4ccccc34)NC(=O)[C@H](CCCCNC(=O)CCN)NC(=O)[C@H](Cc3c[nH]c4ccccc34)NC(=O)[C@H](CCCNC(=N)N)NC(=O)[C@H](Cc3c[nH]c4ccccc34)NC(=O)[C@H](CCCNC(=N)N)NC2=O)[C@H](O)[C@H](C)O1` has an ROS level of 1.05 fold (C2C12 cells; H2DCFDA flow cytometry; 0.5 mM, 72 h; baseline: control).
`CC(C)C[C@H](NC(=O)[C@H](Cc1ccc(O)cc1)NC(=O)[C@@H](CCCNC(=N)N)NC(=O)[C@@H](CO)NC(=O)[C@H](Cc1ccccc1)NC(=O)[C@H](CC1CCCCC1)NC(=O)[C@H](CC(=O)O)NC(=O)[C@H](CCC(=O)O)NC(=O)[C@H](CCC(=O)O)NC(=O)[C@H](CCC(=O)O)NC(=O)[C@H](CCC(=O)O)NC(=O)CCc1ccc(N(c2ccc(CCC(=O)O)cc2)c2ccc(-c3c4c(c(-c5ccc(N(c6ccc(CCC(=O)O)cc6)c6ccc(CCC(=O)O)cc6)cc5)c5nsnc35)N=S=N4)cc2)cc1)C(=O)N[C@@H](Cc1c[nH]c2ccccc12)C(=O)N[C@@H](CO)C(N)=O` — result for “ex vivo signal intensity”: 0.1 (nude mice, ventricle; unblocked, unit not given; baseline: liver).
The tissue uptake of `N=C(N)NCCC[C@@H]1NC(=O)[C@H](CCCCNC(=O)CNC(=O)CNC(=O)CNC(=O)CC[C@H](NC(=O)CCOCCOCCOCCOCCNC(=O)CC[C@H](NC(=O)CN2CCN(CC(=O)O)CCN(CC(=O)O)CCN(CC(=O)O)CC2)C(=O)NCCOCCOCCOCCOCCC(=O)N[C@@H](CCC(=O)NCC(=O)NCC(=O)NCC(=O)NCCCC[C@@H]2NC(=O)[C@@H](Cc3ccccc3)NC(=O)[C@H](CC(=O)O)NC(=O)CNC(=O)[C@H](CCCNC(=N)N)NC2=O)C(=O)NCC(=O)NCC(=O)NCC(=O)NCCCC[C@@H]2NC(=O)[C@@H](Cc3ccccc3)NC(=O)[C@H](CC(=O)O)NC(=O)CNC(=O)[C@H](CCCNC(=N)N)NC2=O)C(=O)NCC(=O)NCC(=O)NCC(=O)NCCCC[C@@H]2NC(=O)[C@@H](Cc3ccccc3)NC(=O)[C@H](CC(=O)O)NC(=O)CNC(=O)[C@H](CCCNC(=N)N)NC2=O)NC(=O)[C@@H](Cc2ccccc2)NC(=O)[C@H](CC(=O)O)NC(=O)CNC1=O` [indium-111 labelled] is reported as 10.2 ± 1.61 %ID/g (athymic nude mice, female, U-87 MG glioma xenograft, U-87 MG tumour; intravenous, 3 µCi, 1 h).

Some of these lines once more:
`COC(=O)[C@H](CSSC(C)(C)[C@H](NC(=O)[C@H](CCC(=O)NC[C@H](O)[C@@H](O)[C@H](O)[C@H](O)CO)NC(=O)[C@H](CCC(=O)O)NC(=O)[C@H](CCC(=O)NC[C@H](O)[C@@H](O)[C@H](O)[C@H](O)CO)NC(=O)[C@H](CCC(=O)O)NC(=O)[C@H](CCC(=O)NC[C@H](O)[C@@H](O)[C@H](O)[C@H](O)CO)NC(=O)CC[C@H](NC(=O)c1ccc(NCc2cnc3nc(N)[nH]c(=O)c3n2)cc1)C(=O)O)C(=O)O)NC(=O)CC[C@H](NC(=O)c1ccc(NCc2cnc3nc(N)[nH]c(=N)c3n2)cc1)C(=O)O` has an AUC(0-last) of 1.02 µM·h (Lewis rat, female, plasma; subcutaneous, 500 nmol/kg).
